Experimental data collected from several papers.
Parts stem from different laboratories: compare values within a part only. Positions count from the first letter of the parent shown.

Series 1
Target: CCNE2, cyclin fold, Cln2 fusion (human)
Method: yeast growth competition, sequencing
Matrix: yeast
Notes: strong parent motif
Relative to: not given
Reading: higher = stronger binding
Starting sequence: BRCA2 docking peptide (human); PSIKRNLLNEFDR; partner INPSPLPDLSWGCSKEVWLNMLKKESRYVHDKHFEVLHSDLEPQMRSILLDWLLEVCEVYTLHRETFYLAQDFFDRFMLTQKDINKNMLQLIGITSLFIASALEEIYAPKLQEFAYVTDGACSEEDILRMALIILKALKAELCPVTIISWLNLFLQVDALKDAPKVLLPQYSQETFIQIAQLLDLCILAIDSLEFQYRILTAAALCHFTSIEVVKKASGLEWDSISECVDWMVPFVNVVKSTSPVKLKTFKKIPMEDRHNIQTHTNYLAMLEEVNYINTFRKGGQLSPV
Change	normalised enrichment score
PSIKRNFLNEFDR [L7F]	-0.0682
PSIKRNLLNEFAR [D12A]	3.16
PSIFRNLLNEFDR [K4F]	0.421
PSIKRNLLTEFDR [N9T]	1.36
PSIKRNLLNSFDR [E10S]	0.884

Series 2
Target: Centromere-binding protein 1, full length, His-tagged (CBF1, Saccharomyces cerevisiae, UniProt P17106, residues 1-351)
Sequence of UniProt P17106 (whole entry, looked up): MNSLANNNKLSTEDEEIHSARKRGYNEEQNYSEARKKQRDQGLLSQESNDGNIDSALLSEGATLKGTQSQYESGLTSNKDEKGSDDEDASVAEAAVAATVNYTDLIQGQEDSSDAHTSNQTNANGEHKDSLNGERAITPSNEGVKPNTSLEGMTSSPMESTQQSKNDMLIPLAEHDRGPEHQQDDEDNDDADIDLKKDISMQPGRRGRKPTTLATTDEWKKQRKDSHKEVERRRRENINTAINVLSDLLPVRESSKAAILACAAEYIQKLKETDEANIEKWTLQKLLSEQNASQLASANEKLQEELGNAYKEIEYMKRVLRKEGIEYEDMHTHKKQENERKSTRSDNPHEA
Method: competition protein-binding microarray
Molecule type: double-stranded DNA, one strand shown
Matrix: in vitro
Concentration: 2 µM
Notes: whole 60-bp probe, lowest competitor level
With: Pho4 competitor, 0.05 µM
Reading: higher = stronger binding
Shared flanks, not repeated: … GTCTTGATTCGCTTGACGCTGCTG
Oligonucleotide	fluorescence intensity [a.u.]
TGAATGCACCTATTGCACGCTGCGAAGCTAACGTAG	74.7
CAATTTTGTGGTCGGATCGTGCTTTTGCCACCCGCG	78
TGCGCAACAACTTGACGCGTGGGTGTATGTCTAGAA	79.2
CGCCATTATAGTGTAAACGTGAGGTACGGATATCGA	115
GTCGTCATCCTCCAAGCCGTGATGGTCATCTTCTTC	54.8

Series 3
Target: RNA binding protein fox-1 homolog 2, RRM domain, GST-SBP tag (RBFOX2, Homo sapiens, UniProt O43251-10, residues 100-194)
Method: RNA Bind-n-Seq
Molecule type: RNA
Matrix: in vitro
Concentration: 365 nM
Notes: natural RNA segment, single round, ends assumed
Relative to: no-protein control
Reading: higher = stronger binding
Shared flanks, not repeated: GGGAGUUCUACAGUCCGACGAUC … UGGAAUUCUCGGGUGCCAA
Target sequence (chain): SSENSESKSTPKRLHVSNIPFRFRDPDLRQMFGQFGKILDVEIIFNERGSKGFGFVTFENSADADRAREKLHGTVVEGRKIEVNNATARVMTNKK
Oligonucleotide	RBNS enrichment (R)
GAAGAUAUAGCAGAAUCUACCCUUCCAGGAAGACAUACAGUUGAAAUGCUGGUCAUUUCCUUUGCAAAGGACAGUCUCUGAAUUAUACCUACAACCUGUUCUGGGACAGU	0.21
AGAGUGAGAUUGGUAUUCAUUUACCUAUGUUGCGCCAGUUUGUGUUGCAGUUUACCAAUUCAAUAUAGCCCUGCAUUUAAAGUUCCUUUUUAAGAUUUGUGGAUUUUAUU	0.324
GCCAUUCCAUUCCCAGGGAGUGAGAAGUAUUGUGGGUAGAGUUGCCAAAGAUGGCUGGACCAUGGAAGAGAGUACCCUAUGAUGGGUUUCAACCUUGACUCGUAAAUACU	0.412
AGGAUUUUCCUUAGGACAGGUGUGACCUUCUGGUCCCUCUGUCCCAUUGCCCUCUCGUAUUCCAUUUAAAAAAGUCAUUCAUGAUCCUUUCCACCCGCUCUCUGUAUUUU	0.576
GCACUGGUCUGACUUUAUAAAUUAUUUAAUAAAAUGAACUAUUAUCAAAUAAAACGUAUGAAUCAGUCUUUAUAGUUGUCUUUUAAUAAAACAGGCAUUUGAUAAUGUUA	1.06
CAGAAACUUCUCUGACACCCAUUCACCAGGGUGCUGAGAUAGGAGAAAGUGCUCAUUUAUAAUGUGUAUUCUGUGCAGCUGUUCUCAGACAAGACCGGAUCUUGUCAUCU	0.233
UCUUAGUUGGUAUCAACCAAAUGGAGUGACUUAGUGUACAUGAAAGCGUAAAGAGGAUGUGUGGCAUUUUCACUUUUGGCUUGUAAAGUACAGACUUUUUUUUUUUUUUA	0.638

Mixed results
Molecule	target	assay	system	setting	scale	quantity	result
PhoQ, residues 284 288 289 292 302 303 AMDMFI	PhoP, residues 12 14 15 18 19 SQCLL (Escherichia coli, UniProt P23836)	Sort-seq, refers to: YFP reporter	E. coli	PhoQ-PhoP variant library, with: 10 µM Mg2+	relative to: high Mg2+ state, higher = stronger signaling	fold induction	1.87
